Experimental data of several laboratories.
Numbered parts are unrelated; each lists some results of a single study.
UniProt Q8TD19, sequence (whole entry, looked up): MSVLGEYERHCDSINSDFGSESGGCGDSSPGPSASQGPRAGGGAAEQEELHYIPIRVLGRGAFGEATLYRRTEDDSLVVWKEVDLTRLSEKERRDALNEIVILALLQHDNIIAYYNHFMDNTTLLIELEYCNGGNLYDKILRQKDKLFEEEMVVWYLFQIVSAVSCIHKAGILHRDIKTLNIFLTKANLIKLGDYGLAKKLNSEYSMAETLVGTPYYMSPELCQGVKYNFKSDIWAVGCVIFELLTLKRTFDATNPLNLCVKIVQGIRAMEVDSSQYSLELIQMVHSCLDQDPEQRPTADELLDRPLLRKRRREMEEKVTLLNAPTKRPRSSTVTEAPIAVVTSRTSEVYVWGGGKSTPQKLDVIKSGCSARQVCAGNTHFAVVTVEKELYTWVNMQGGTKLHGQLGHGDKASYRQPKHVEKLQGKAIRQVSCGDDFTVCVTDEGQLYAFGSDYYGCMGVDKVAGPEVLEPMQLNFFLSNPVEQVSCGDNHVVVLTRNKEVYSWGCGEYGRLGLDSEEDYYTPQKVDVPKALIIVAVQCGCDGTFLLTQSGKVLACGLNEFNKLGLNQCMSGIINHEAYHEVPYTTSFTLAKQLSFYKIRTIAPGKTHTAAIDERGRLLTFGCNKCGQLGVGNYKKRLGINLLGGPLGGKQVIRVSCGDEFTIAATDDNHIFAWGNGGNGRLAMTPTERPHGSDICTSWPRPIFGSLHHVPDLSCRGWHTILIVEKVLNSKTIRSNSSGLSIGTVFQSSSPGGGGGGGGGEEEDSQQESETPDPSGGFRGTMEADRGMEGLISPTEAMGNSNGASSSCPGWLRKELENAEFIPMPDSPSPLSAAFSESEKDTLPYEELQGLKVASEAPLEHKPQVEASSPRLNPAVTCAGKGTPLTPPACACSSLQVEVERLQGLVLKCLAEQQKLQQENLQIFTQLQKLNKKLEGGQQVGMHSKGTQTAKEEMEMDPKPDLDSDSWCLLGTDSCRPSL
UniProt Q9NQU5, sequence (whole entry, looked up): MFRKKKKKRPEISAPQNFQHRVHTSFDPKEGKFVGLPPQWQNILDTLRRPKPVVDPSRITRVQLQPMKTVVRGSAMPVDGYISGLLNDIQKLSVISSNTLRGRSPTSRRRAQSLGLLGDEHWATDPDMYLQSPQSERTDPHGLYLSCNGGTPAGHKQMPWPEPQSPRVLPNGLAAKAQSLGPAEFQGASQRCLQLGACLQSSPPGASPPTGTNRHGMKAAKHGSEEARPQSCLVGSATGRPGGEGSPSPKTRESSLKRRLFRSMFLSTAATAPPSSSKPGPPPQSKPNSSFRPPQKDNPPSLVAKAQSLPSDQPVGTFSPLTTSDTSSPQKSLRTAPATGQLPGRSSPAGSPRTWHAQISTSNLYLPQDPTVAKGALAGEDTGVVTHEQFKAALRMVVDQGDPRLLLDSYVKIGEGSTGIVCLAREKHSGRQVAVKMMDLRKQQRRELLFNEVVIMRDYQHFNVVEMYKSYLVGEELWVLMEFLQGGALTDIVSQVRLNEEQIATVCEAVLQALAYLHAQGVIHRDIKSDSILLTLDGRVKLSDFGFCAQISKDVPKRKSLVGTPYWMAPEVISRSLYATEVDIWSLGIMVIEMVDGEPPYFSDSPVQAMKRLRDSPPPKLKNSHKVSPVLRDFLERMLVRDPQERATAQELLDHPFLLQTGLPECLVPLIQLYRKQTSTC
UniProt P23458, sequence (whole entry, looked up): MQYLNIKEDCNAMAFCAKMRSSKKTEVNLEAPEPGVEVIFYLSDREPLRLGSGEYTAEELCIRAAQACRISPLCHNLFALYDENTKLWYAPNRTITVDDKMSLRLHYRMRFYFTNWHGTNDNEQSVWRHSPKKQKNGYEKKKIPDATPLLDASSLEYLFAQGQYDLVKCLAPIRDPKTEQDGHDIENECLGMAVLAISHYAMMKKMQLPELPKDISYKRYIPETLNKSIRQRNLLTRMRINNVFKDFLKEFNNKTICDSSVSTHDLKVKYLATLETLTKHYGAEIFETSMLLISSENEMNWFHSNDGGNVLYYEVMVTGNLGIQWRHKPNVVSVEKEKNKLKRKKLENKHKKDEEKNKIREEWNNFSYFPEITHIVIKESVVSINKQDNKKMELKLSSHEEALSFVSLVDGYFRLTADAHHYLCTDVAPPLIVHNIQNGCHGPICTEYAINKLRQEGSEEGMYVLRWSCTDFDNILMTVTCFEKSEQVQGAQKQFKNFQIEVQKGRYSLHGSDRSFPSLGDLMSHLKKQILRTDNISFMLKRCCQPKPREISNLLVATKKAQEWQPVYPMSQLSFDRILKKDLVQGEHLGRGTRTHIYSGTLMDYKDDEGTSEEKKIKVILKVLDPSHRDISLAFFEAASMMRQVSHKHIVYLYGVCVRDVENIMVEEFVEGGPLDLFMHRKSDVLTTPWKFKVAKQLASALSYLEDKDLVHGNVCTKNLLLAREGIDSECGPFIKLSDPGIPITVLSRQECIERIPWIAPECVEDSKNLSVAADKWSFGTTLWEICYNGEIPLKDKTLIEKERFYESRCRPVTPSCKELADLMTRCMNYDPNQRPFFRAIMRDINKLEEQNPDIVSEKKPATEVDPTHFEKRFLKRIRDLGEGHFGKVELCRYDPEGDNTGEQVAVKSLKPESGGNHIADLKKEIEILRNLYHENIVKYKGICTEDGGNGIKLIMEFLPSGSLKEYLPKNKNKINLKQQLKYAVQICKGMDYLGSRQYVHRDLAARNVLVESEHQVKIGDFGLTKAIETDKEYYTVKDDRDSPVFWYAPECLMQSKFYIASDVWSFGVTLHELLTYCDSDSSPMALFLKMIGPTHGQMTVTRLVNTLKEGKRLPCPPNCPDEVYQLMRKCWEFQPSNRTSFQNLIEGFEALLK
UniProt Q9BXA7, sequence (whole entry, looked up): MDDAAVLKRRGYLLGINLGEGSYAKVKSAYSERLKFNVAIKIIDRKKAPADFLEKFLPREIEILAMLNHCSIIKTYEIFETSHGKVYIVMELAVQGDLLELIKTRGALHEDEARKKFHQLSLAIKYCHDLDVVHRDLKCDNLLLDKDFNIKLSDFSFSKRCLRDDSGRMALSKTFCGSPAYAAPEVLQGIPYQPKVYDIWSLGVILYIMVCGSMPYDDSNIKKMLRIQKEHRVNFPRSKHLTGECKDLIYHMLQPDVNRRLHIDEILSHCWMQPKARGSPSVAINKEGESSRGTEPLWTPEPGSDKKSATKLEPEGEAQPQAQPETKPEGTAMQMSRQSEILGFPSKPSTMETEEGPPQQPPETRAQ

Set 1 — organism: Sarcocystis neurona; effect on: parasite growth; concentration: 10 µM; time: 96 h; setting: second screen; baseline: untreated
SMILES | log2 fold change
CCC1=C(C)CN(C(=O)NCCc2ccc(S(=O)(=O)NC(=O)N[C@H]3CC[C@H](C)CC3)cc2)C1=O | 0.71
C[C@]12C=CC(=O)C=C1CC[C@@H]1[C@@H]2C(=O)C[C@@]2(C)[C@H]1CC[C@]2(O)C(=O)CO | 0.23
CC(C)[C@H](N)C(=O)OCCOCn1cnc2c(=O)[nH]c(N)nc21 | 0.31
CO[C@H]1O[C@@H]2O[C@@]3(C)CC[C@H]4[C@H](C)CC[C@@H]([C@H]1C)[C@@]24OO3 | -1.15
COc1cc(C)c(/C=C/C(C)=C/C=C/C(C)=C/C(=O)O)c(C)c1C | 1
CN(C)CCc1c[nH]c2ccc(C[C@H]3COC(=O)N3)cc12 | 0.3
CC(C)(C(=O)O)c1ccc(C(O)CCCN2CCC(C(O)(c3ccccc3)c3ccccc3)CC2)cc1 (centres unmarked) | 0.42

Set 2 — medium: plasma
SMILES: COc1ccc(-c2c(Nc3ccccn3)[nH]c3c(C4=CCCCC4)c(-c4ccccc4)nn3c2=O)cc1
test | test system | conditions | geometric mean concentration [ng/mL]
LC-MS/MS, refers to: S-adenosylmethionine | – | oral, 200 mg twice daily, 0 h, cycle 1 day 1 | 10.4
refers to: methionine | human patients | 150 mg once daily, 0 h | 128000
refers to: S-adenosylmethionine | human patients | 150 mg once daily, 2 h | 19.9
refers to: methionine | human patients | 100 mg once daily, 6 h | 85600
refers to: S-adenosylmethionine | human patients | 100 mg once daily, 4 h | 18.3
refers to: methionine | human patients | 200 mg once daily, 2 h | 105000
LC-MS/MS, refers to: S-adenosylmethionine | – | oral, 200 mg twice daily, 4 h, cycle 1 day 1 | 11.1

Set 3 — effect on: enzyme activity; action: inhibitor; concentration: 10 µM
Target: Calcium/calmodulin-dependent protein kinase type II subunit alpha (CAMK2A, Homo sapiens, UniProt Q9UQM7)
UniProt Q9UQM7, sequence (whole entry, looked up): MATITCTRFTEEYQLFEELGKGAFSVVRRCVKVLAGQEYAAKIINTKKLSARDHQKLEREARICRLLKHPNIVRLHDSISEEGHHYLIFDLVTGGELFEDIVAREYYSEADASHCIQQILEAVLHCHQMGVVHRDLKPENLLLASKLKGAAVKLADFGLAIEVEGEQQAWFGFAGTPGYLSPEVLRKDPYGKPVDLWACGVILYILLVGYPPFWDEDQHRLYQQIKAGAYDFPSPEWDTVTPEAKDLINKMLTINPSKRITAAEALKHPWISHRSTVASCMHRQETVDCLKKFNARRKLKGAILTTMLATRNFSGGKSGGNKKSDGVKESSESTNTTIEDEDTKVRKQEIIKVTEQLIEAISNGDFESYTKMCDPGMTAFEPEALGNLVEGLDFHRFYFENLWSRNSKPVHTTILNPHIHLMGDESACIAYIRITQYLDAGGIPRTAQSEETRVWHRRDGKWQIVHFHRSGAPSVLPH
Compound | inhibition [%]
COC[C@@H](Cc1ccc(OC)c(OC)c1)[C@@H](COC)Cc1ccc(OC)c(OC)c1 | -27
C[C@@H]1O[C@@H](OC[C@H]2O[C@@H](Oc3c(-c4ccc(O)cc4)oc4cc(O)cc(O)c4c3=O)[C@H](O[C@@H]3O[C@H](CO)[C@@H](O)[C@H](O)[C@H]3O)[C@@H](O)[C@@H]2O)[C@H](O)[C@H](O)[C@H]1O | -72
Cc1ccc2[nH]c3ccccc3c2c1 | -11
O=C1c2cc(CO)cc(O)c2C(=O)c2c(O[C@@H]3O[C@H](CO)[C@@H](O)[C@H](O)[C@H]3O)cccc21 | 7
COc1cc2ccc(=O)oc2cc1OC | -11
C[C@@]12CC[C@@H]3[C@@](CC[C@H]4[C@@]3(C)CCC[C@@]4(C)C(=O)O)(CC1=O)C2 | 9
COc1c(OC)c2occc2c2oc(=O)ccc12 | -28
CC(C)=CCC/C(C)=C/CC/C(C)=C/CCC(=O)OC/C=C(\C)CCC=C(C)C | -5
CN1CCN2c3ccccc3Cc3ccccc3C2C1 (centres unmarked) | 6

Set 4 — effect on: cell-free assay; method: competition with immobilised ligand; concentration: 1 µM
Compound: O=C(Nc1cccnn1)N1CCC(=Cc2cccc(Oc3ccc(C(F)(F)F)cn3)c2)CC1
target | remaining binding
Serine/threonine-protein kinase mTOR (MTOR, Homo sapiens, UniProt P42345) | 87%
Ephrin type-A receptor 3 (EPHA3, Homo sapiens, UniProt P29320) | 100%
Testis-specific serine/threonine-protein kinase 1 (TSSK1B, Homo sapiens, UniProt Q9BXA7) | 82%
Tyrosine-protein kinase ABL1, non-phosphorylated (ABL1, Homo sapiens, UniProt P00519, Q252H) | 75%
Ribosomal protein S6 kinase beta-1 (RPS6KB1, Homo sapiens, UniProt P23443) | 100%
Epidermal growth factor receptor (EGFR, Homo sapiens, UniProt P00533) | 100%
Serine/threonine-protein kinase Nek9 (NEK9, Homo sapiens, UniProt Q8TD19) | 100%
Tyrosine-protein kinase ABL1, phosphorylated (ABL1, Homo sapiens, UniProt P00519, T315I) | 76%
Serine/threonine-protein kinase PAK 6 (PAK6, Homo sapiens, UniProt Q9NQU5) | 100%
Serine/threonine-protein kinase PAK 4 (PAK4, Homo sapiens, UniProt O96013) | 77%
Tyrosine-protein kinase JAK1, JH1 (JAK1, Homo sapiens, UniProt P23458) | 97%
Serine/threonine-protein kinase TAO2 (TAOK2, Homo sapiens, UniProt Q9UL54) | 100%
Atypical kinase COQ8B, mitochondrial (COQ8B, Homo sapiens, UniProt Q96D53) | 81%
Ribosomal protein S6 kinase alpha-1, N-terminal kinase domain (RPS6KA1, Homo sapiens, UniProt Q15418) | 100%
Mitogen-activated protein kinase 7 (MAPK7, Homo sapiens, UniProt Q13164) | 100%

Repeated from above (set 2):
test | test system | conditions | geometric mean concentration [ng/mL]
refers to: methionine | human patients | 100 mg once daily, 6 h | 85600
refers to: S-adenosylmethionine | human patients | 150 mg once daily, 2 h | 19.9
refers to: S-adenosylmethionine | human patients | 100 mg once daily, 4 h | 18.3
refers to: methionine | human patients | 200 mg once daily, 2 h | 105000
